Experimental data of several laboratories.
Compare with care: the assays were run in different laboratories. “And” joins repeats or separate records; there may be more than shown.
CYP2D6: Cytochrome P450 2D6 (CYP2D6, Homo sapiens, UniProt P10635)
Chain of UniProt P10635 (whole entry, unmodified, looked up): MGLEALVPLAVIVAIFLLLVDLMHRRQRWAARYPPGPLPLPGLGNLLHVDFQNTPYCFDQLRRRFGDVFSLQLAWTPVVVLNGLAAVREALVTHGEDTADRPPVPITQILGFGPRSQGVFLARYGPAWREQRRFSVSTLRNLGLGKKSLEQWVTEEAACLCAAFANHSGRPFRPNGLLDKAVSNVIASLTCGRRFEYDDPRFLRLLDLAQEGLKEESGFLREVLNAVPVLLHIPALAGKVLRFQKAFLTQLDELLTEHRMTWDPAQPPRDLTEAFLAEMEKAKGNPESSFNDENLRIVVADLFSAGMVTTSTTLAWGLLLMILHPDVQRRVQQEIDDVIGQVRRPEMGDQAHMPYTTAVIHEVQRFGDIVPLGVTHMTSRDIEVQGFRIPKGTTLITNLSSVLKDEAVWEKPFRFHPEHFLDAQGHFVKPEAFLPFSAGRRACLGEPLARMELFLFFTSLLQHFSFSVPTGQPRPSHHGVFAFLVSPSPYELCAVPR

Structure (SMILES) | target | test | test system | setting | IC50
CN(C/C=C/C#CC(C)(C)C)Cc1cccc2ccccc12 | Cytochrome P450 2D6 (CYP2D6, Homo sapiens, UniProt P10635, R296C/S486T/T107I) |  |  | pH 7.4 | 1.69 µM
NC/C(=C\F)COc1cccc(Cn2c(=S)[nH]c(=O)c3[nH]cnc32)c1 | CYP2D6 | enzyme activity, inhibitor |  | CYP2D6 screen | > 10 µM
O=C(NCCN1CCCC1)c1cc(-c2ccc(CN3CCOCC3)cc2)nc2ccc(F)cc12 | CYP2D6 | enzyme activity, inhibitor | human liver microsomes | together with: bufuralol | 73 µM and 94 µM and 65 µM
O=C(O)/C=C/c1ccccc1 | CYP2D6 | enzyme activity, inhibitor |  |  | > 337 µM
N#Cc1ccc([C@H]2CCc3cncn32)c(F)c1 | CYP2D6 | inhibitor, item: 1'-hydroxylation | pooled human liver microsomes | together with: bufuralol 5 µM | < 10 µM and 4 µM
CCC(C)(C)C(=O)O[C@H]1C[C@@H](C)C=C2C=C[C@H](C)[C@H](CC[C@@H](O)C[C@@H](O)CC(=O)O)[C@H]21 | CYP2D6 | inhibitor |  | together with: substrate AMMC | > 100 µM
CCOc1cc(-c2nncn2C)ccc1Nc1ncc2cc(C)nc(NCC(C)(C)C)c2n1 | CYP2D6 | enzyme activity, inhibitor |  |  | 10 to 50 µM
Cc1nc(-c2cnc(NC(C)C)n(C)c2=O)ccc1Oc1ccnc(-c2cnn(C)c2)c1 | CYP2D6 | inhibitor |  | 30 min, preincubation without NADPH | > 100 µM
CCCCCNC(=N)N/N=C/c1c[nH]c2ccc(OC)cc12 | CYP2D6 | inhibitor |  | together with: substrate AMMC | 0.34 µM
Cc1cc(OC2COC2)cc(C(=O)Nc2ccc(F)cn2)n1 | CYP2D6 | inhibitor |  |  | > 30 µM
CC(C)(C)S(=O)(=O)c1cc2c(Nc3ccc4scnc4c3)ncnc2cc1OCCOP(=O)(O)O | CYP2D6 | inhibitor | human liver microsomes | 30 min, pH 7.4, together with: dextromethorphan | 78.6 µM
